# Published values pooled from the literature.
# Parts stem from different laboratories: compare values within a part only. “And” joins repeats or separate records; there may be more than shown.
# UniProt P10721, sequence (whole entry, unmodified, looked up): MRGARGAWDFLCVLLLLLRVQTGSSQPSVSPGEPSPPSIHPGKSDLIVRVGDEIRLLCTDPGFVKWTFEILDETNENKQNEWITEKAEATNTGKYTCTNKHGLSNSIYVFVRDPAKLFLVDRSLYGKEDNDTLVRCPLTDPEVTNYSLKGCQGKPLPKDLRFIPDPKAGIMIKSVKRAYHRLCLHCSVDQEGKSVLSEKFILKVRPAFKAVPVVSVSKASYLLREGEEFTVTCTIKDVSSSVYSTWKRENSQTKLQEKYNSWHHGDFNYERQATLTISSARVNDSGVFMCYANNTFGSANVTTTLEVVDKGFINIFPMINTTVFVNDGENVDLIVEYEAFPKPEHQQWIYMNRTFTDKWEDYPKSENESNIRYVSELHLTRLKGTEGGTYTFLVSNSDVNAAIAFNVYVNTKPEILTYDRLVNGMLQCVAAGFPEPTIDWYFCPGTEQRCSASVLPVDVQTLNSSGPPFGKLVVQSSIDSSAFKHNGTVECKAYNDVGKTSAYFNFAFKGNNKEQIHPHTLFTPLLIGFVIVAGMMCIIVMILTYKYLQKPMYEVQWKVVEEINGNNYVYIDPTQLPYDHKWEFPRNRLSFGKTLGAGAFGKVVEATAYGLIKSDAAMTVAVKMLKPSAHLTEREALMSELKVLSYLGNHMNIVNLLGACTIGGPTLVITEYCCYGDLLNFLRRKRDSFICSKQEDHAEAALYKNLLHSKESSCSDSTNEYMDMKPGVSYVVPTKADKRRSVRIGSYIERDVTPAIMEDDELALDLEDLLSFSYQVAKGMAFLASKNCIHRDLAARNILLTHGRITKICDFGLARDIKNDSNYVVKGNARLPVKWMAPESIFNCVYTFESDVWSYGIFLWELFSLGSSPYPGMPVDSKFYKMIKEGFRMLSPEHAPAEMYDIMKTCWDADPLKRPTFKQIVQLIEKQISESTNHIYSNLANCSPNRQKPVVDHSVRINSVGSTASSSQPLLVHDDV
# UniProt Q9C098, sequence (whole entry, looked up): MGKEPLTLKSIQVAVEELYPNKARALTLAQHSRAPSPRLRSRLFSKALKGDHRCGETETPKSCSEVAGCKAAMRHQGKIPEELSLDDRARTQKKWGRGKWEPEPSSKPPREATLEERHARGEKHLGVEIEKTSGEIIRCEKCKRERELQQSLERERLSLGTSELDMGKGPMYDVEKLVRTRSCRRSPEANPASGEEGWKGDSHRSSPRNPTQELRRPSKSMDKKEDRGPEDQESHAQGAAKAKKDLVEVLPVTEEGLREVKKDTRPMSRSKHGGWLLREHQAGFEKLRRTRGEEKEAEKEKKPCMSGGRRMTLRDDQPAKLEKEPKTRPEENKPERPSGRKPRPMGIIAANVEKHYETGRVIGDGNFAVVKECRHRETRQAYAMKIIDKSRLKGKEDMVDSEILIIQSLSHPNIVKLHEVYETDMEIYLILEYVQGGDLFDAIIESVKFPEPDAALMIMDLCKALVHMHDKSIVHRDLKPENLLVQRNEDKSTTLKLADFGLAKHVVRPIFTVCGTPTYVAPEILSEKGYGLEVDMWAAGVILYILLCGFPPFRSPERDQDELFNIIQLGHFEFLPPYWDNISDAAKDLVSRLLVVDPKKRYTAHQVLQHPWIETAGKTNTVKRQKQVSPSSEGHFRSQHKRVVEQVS
# UniProt Q07912, sequence (whole entry, looked up): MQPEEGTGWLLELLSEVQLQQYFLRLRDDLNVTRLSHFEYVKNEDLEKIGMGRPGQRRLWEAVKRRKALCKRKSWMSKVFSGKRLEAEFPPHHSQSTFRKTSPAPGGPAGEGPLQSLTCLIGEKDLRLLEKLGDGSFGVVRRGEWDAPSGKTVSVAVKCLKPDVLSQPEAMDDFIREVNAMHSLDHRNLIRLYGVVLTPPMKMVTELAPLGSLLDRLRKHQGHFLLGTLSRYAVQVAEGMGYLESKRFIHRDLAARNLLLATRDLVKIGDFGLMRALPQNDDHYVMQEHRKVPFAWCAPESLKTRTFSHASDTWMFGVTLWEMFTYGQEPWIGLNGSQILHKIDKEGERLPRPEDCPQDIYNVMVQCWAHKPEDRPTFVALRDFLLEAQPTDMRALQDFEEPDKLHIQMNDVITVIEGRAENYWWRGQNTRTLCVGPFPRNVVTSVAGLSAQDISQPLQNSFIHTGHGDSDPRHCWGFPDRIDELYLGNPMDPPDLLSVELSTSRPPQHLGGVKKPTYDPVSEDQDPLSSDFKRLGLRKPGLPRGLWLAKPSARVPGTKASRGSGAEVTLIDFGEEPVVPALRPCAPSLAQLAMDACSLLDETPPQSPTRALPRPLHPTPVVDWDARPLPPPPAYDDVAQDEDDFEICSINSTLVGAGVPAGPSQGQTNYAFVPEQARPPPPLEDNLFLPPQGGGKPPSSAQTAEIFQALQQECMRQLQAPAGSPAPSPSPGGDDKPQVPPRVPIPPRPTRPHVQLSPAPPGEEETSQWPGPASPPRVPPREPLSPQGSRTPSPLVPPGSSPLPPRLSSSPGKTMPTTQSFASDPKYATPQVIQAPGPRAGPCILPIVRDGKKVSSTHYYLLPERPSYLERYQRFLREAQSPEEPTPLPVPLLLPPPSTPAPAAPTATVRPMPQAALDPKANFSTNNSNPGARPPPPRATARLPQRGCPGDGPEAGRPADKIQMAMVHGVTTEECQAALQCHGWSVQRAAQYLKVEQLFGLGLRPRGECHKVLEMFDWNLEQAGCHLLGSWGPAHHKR
# UniProt Q16620, sequence (whole entry, looked up): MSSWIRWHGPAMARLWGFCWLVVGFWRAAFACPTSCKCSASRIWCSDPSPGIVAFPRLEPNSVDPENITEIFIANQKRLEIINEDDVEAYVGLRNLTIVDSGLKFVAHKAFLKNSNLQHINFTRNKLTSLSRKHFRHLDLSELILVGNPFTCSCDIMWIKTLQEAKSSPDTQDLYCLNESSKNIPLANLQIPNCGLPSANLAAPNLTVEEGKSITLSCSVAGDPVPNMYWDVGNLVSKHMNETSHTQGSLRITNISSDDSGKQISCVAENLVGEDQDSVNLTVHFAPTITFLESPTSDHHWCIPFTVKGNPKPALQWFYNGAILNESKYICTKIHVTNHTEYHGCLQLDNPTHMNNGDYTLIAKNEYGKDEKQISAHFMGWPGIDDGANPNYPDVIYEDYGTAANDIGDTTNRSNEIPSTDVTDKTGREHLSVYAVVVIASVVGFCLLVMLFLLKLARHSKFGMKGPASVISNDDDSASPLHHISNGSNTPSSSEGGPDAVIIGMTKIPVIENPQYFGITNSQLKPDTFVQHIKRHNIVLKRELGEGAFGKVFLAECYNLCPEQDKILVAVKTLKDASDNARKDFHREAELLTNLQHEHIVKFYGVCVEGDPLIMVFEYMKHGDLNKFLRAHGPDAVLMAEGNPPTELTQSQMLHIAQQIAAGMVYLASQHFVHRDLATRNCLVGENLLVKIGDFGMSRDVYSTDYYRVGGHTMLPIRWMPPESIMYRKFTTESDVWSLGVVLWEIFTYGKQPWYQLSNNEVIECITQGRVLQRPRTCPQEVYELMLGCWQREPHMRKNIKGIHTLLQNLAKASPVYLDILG
# UniProt Q96BR1, sequence (whole entry, looked up): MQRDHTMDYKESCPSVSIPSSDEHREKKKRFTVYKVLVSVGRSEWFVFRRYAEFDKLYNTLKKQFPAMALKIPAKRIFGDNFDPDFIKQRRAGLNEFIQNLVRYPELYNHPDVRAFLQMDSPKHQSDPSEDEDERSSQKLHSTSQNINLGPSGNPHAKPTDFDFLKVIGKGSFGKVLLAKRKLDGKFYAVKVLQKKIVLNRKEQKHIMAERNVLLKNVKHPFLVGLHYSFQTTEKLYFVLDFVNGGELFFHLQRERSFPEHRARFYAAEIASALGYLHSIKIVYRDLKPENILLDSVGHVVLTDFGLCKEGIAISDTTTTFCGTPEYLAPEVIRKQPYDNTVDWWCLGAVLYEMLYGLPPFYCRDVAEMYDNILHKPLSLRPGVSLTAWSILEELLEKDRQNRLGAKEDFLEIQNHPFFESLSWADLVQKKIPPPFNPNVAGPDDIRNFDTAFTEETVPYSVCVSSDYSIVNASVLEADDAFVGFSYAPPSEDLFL

# Study 1
# SMILES: CC(=O)C1=C(C)N(c2cccc(C(F)(F)F)c2)C(=O)N[C@@H]1c1ccc(C#N)nc1
# Technique: competition with immobilised ligand
# Concentration: 1 µM
target,test,remaining binding
"EPHA5 (Homo sapiens, UniProt P54756)",cell-free assay,98.2%
"ERBB3 (Homo sapiens, UniProt P21860)",cell-free assay,100%
"RIPK1 (Homo sapiens, UniProt Q13546)",cell-free assay,85.8%
"EGFR (Homo sapiens, UniProt P00533, L861Q)",cell-free assay,100%
"CILK1 (Homo sapiens, UniProt Q9UPZ9)",binding,100%
"STK38 (Homo sapiens, UniProt Q15208)",cell-free assay,94.1%
"TNIK (Homo sapiens, UniProt Q9UKE5)",cell-free assay,90.8%
"SGK3 (Homo sapiens, UniProt Q96BR1)",cell-free assay,100%
"KIT (Homo sapiens, UniProt P10721, D816V)",cell-free assay,100%
"KIT (Homo sapiens, UniProt P10721, A829P)",cell-free assay,80.8%
"CDKL5 (Homo sapiens, UniProt O76039)",cell-free assay,100%
"KIT (Homo sapiens, UniProt P10721)",cell-free assay,96.9%
"ROCK1 (Homo sapiens, UniProt Q13464)",cell-free assay,100%
"CDKL1 (Homo sapiens, UniProt Q00532)",cell-free assay,80.9%
"KIT (Homo sapiens, UniProt P10721, T670I/V559D)",cell-free assay,96.7%
"MAP2K2 (Homo sapiens, UniProt P36507)",cell-free assay,84.2%
"KIT (Homo sapiens, UniProt P10721, L576P)",cell-free assay,100%
"EGFR (Homo sapiens, UniProt P00533, del752-759)",cell-free assay,92.9%
"PIKFYVE (Homo sapiens, UniProt Q9Y2I7)",cell-free assay,90%
"NTRK2 (Homo sapiens, UniProt Q16620)",cell-free assay,98.1%
"DCLK3 (Homo sapiens, UniProt Q9C098)",cell-free assay,53.9%
"DDR1 (Homo sapiens, UniProt Q08345)",cell-free assay,71.5%
"PAK2 (Homo sapiens, UniProt Q13177)",cell-free assay,98.2%
"TNK2 (Homo sapiens, UniProt Q07912)",cell-free assay,78.6%
"MAP3K14 (Homo sapiens, UniProt Q99558)",cell-free assay,100%

# Study 2
# Structure (SMILES): COc1ccc(-c2c(Nc3ccccn3)[nH]c3c(C4=CCCCC4)c(-c4ccccc4)nn3c2=O)cc1
# Species: human patients
# Medium: plasma
test,setting,mean concentration
item: S-adenosylmethionine,"100 mg once daily, 8 h",21.6 ng/mL
item: methionine,"150 mg once daily, 4 h",129000 ng/mL
item: S-adenosylmethionine,"200 mg once daily, 2 h",14.8 ng/mL
item: methionine,"100 mg once daily, 0 h",89500 ng/mL
item: S-adenosylmethionine,"150 mg once daily, 0 h",18.4 ng/mL
item: methionine,"100 mg once daily, 8 h",92000 ng/mL
item: methionine,"150 mg once daily, 6 h",124000 ng/mL
item: methionine,"150 mg once daily, 2 h",137000 ng/mL
item: S-adenosylmethionine,"150 mg once daily, 2 h",23.1 ng/mL
item: methionine,"100 mg once daily, 4 h",95700 ng/mL
item: methionine,"400 mg once daily, 6 h",84600 ng/mL
item: S-adenosylmethionine,"150 mg once daily, 6 h",22 ng/mL
item: S-adenosylmethionine,"200 mg once daily, 8 h",16.2 ng/mL

# Study 3
# Compound: CO[C@@H]1[C@@H](OC(N)=O)[C@@H](O)[C@H](Oc2ccc3c(O)c(NC(=O)c4ccc(O)c(CC=C(C)C)c4)c(=O)oc3c2C)OC1(C)C
# Species: FVB/129P2 mice, Brca1-/- Trp53-/- TNBC allograft
# Route: intraperitoneal
# Dose: 100 mg/kg twice daily
setting,tumour volume
23 days,174 mm3 and 1350 mm3 and 1250 mm3 and 378 mm3
0 days,186 mm3 and 164 mm3 and 106 mm3 and 128 mm3 and 141 mm3 and 127 mm3 and 220 mm3
29 days,670 mm3 and 260 mm3 and 1670 mm3
47 days,3750 mm3
41 days,1140 mm3
21 days,643 mm3 and 174 mm3 and 1030 mm3 and 691 mm3
35 days,572 mm3 and 2020 mm3
9 days,2210 mm3 and 143 mm3 and 956 mm3 and 226 mm3 and 785 mm3 and 955 mm3 and 1820 mm3

# Study 4
# Target: Serine/threonine-protein kinase Nek9 (NEK9, Homo sapiens, UniProt Q8TD19)
# UniProt Q8TD19, sequence (whole entry, looked up): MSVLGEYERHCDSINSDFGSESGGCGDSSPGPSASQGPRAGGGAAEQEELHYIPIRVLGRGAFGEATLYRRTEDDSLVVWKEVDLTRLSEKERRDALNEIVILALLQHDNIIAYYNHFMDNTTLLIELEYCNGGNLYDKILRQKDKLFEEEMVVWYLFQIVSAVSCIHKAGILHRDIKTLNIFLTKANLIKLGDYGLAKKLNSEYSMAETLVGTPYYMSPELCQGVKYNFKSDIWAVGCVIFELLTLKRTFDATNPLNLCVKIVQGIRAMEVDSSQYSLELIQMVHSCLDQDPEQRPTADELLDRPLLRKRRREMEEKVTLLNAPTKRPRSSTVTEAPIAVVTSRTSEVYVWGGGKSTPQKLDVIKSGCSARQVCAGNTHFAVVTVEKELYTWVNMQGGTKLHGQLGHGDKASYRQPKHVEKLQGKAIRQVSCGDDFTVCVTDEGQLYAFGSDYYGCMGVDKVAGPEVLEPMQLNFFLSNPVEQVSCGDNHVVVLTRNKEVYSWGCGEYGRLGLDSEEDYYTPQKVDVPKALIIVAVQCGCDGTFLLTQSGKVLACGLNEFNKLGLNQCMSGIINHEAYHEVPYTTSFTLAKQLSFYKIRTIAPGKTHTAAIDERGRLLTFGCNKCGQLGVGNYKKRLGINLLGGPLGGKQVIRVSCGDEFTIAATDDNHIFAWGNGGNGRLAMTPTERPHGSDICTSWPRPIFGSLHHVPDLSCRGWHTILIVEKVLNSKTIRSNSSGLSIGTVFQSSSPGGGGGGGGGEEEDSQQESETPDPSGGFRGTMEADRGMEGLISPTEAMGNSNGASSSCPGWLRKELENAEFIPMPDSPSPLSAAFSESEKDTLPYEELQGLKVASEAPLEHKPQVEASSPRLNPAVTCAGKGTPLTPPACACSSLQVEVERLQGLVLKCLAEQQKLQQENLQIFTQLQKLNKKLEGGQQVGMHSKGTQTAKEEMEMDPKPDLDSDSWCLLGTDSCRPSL
# Observed: enzyme activity
# Mode: inhibitor
# Concentration: 0.5 µM
# Relative to: control
SMILES,remaining activity
COc1cc2ncnc(Nc3ccc(O)c(Br)c3)c2cc1OC,104%
Cc1nc2cc3nc(-c4cccs4)cnc3cc2n1C,105%
O=C1C(Cl)=C(N2C(=O)CCC2=O)C(=O)c2ccccc21,98.3%
CCN(CC)CCNC(=O)c1c(C)[nH]c(/C=C2\C(=O)Nc3ccc(Cl)cc32)c1C,95.9%
O=C(Nc1cccc(Nc2nccc(Nc3cccc(C(F)(F)F)c3)n2)c1)C1CC1,102%
CN(C)C[C@H]1CCn2c(c(C3=C(c4cn(C)c5ccccc45)C(=O)NC3=O)c3ccccc32)C1,97.6%
Ic1cccc(CSc2nnc(-c3ccncc3)o2)c1,99.2%
CCN(CC)C(=O)c1ccc(Nc2nc(OCC3CCCCC3)c3[nH]cnc3n2)cc1,81.9%
N#C/C(=C\c1ccc(O)c(O)c1)C(=O)NCc1ccccc1,97.2%
c1ccc(-c2cnc(Nc3ccc(OCCN4CCCC4)cc3)s2)cc1,101%
COc1cc2ncnc(Nc3cccc(Cl)c3)c2cc1OC,82.6%
CCOc1nc(NC(=O)Cc2cc(OC)ccc2OC)cc(N)c1C#N,95.9%
CN([C@@H](Cc1ccc(OS(=O)(=O)c2cccc3cnccc23)cc1)C(=O)N1CCN(c2ccccc2)CC1)S(=O)(=O)c1cccc2cnccc12,97.6%
Cc1cc2ncc(-c3ccccc3)nc2cc1C,93.1%
COc1cc2c(cc1OC)-c1[nH]nc(Nc3cccc(F)c3)c1C2,102%
C[C@@H]1CCN(C(=O)CC#N)C[C@@H]1N(C)c1ncnc2[nH]ccc12,96.2%
c1ccc(-c2[nH]ncc2-c2ccnc3ccccc23)nc1,94.7%
O=c1cc(-c2cccc3c2Sc2ccccc2S3)oc(N2CCOCC2)c1,110%
Cn1nc2c3c(cccc31)C(=O)c1ccccc1-2,96.6%
N#Cc1c(NC(=O)c2cccc3ccccc23)sc2c1CCCC2,96%
CCN(CC)CCNC(=O)c1c(C)[nH]c(/C=C2\C(=O)Nc3ccc(F)cc32)c1C,100%
Cc1cn(-c2cc(NC(=O)c3ccc(C)c(Nc4nccc(-c5cccnc5)n4)c3)cc(C(F)(F)F)c2)cn1,98.5%
Nc1cccc(-c2cc3c(Oc4cccc(O)c4)ncnc3[nH]2)c1,103%
O=C1c2ccccc2-c2n[nH]c3cccc1c23,97%
